Published values of several laboratories.
Each line is one published result; not all experiments were run side by side. Numbers after ± are the reported error.
Medium: plasma

COc1ccc(C[C@@H]2NC(=O)[C@H]([C@@H](C)O)NC(=O)[C@@H]3[C@@H]4CCN3C(=O)[C@@H]3Cc5cn(c6ccc(F)cc56)CCCCCCN(Cc5ccc(cc5)CCNC(=O)[C@]5(C)CCCN5C2=O)C(=O)CCC(=O)N[C@@H](C)C(=O)N[C@H](CNC(=O)CCCCC[N+](C)(C)C)C(=O)N[C@@H](Cc2cccc(c2)CNC(=O)CO4)C(=O)N3)cc1  Cmax (fasted healthy humans; oral, 10 mg single dose, with 1800 mg Labrasol, geometric mean): 5.21 nM
O[C@H]1CCCN[C@@H]1CCCn1cnc2c(Cl)c(Cl)ccc21  Cmax (healthy human volunteers; oral, 50 mg, day 1, multiple ascending dose): 70 ng/mL
COc1ccsc1CNCC[C@@]1(c2ccccn2)CCOC2(CCCC2)C1  Cmax (healthy human, normal hepatic function; intravenous, 1 mg single dose, arithmetic mean): 54.1 ± 59.5 ng/mL
Oc1ccc2ccc3c4ccccc4cc4ccc1c2c43  Cmax (UPLC-AMS; human; oral, 25 ng of [14C]-BaP): 1.47 ± 0.74 fg BaP equivalents/mL
Cc1ncc(OC[C@@]2(c3cccc(F)c3)C[C@H]2C(=O)Nc2ccc(F)cn2)c(C)n1  Cmax (human; 10 mg, alone, mean): 56.2 ng/mL
Cc1ncc2n1-c1ccc(Cl)cc1C(c1ccccc1F)=NC2  Cmax (human; oral, 7.5 mg, alone before amenamevir 400 mg): 30.2 ± 22.7 ng/mL
CC(C)c1nc(CN(C)C(=O)N[C@H](C(=O)N[C@@H](Cc2ccccc2)C[C@H](O)[C@H](Cc2ccccc2)NC(=O)OCc2cncs2)C(C)C)cs1  Cmax (healthy human volunteers; oral, dose not given, with: warfarin plus 2D regimen): 2070 ng/mL
Cc1ncc2n1-c1ccc(Cl)cc1C(c1ccccc1F)=NC2  Cmax (humans; oral, 2 mg, day 1): 11.6 ng/mL
Cc1ncc2n1-c1ccc(Cl)cc1C(c1ccccc1F)=NC2  Cmax (healthy human; oral, 2 mg, with: efavirenz 50 mg, no ritlecitinib): 8 ng/mL
CCCNS(=O)(=O)Nc1ncnc(OCCOc2ncc(Br)cn2)c1-c1ccc(Br)cc1  Cmax (healthy adult humans, both sexes; oral, 10/40 mg fixed-dose combination, single dose, fasted, food-effect part): 208 ng/mL
Cc1cnc(C(=O)N[C@H]2CCCCC/C=C\[C@@H]3C[C@@]3(C(=O)NS(=O)(=O)C3CC3)NC(=O)[C@@H]3C[C@@H](Oc4nc5ccccc5c5ccccc45)CN3C2=O)cn1  Cmax (healthy human volunteers; oral, dose not given, rosuvastatin interaction study; baseline: given without rosuvastatin): 296 ng/mL
CCCCCOc1ccc(-c2ccc(-c3ccc(C(=O)N[C@H]4C[C@@H](O)[C@@H](O)NC(=O)[C@@H]5[C@@H](O)[C@@H](C)CN5C(=O)[C@H]([C@@H](C)O)NC(=O)[C@H]([C@H](O)[C@@H](O)c5ccc(O)cc5)NC(=O)[C@@H]5C[C@@H](O)CN5C(=O)[C@H]([C@@H](C)O)NC4=O)cc3)cc2)cc1  Cmax (human infants; intravenous, 3 mg/kg loading dose): 6900 ng/mL
CC[C@H](C)[C@H](NC(=O)[C@H](CC(C)C)NC(=O)[C@H](Cc1c[nH]c2ccccc12)NC(=O)[C@H](CCC(N)=O)NC(=O)[C@@H](NC(=O)[C@H](Cc1ccccc1)NC(=O)[C@H](C)NC(=O)[C@H](CCCCNC(=O)COCCOCCNC(=O)COCCOCCNC(=O)CC[C@H](NC(=O)CCCCCCCCCCCCCCCCCCC(=O)O)C(=O)O)NC(=O)[C@H](CCC(N)=O)NC(=O)[C@H](C)NC(=O)[C@@H](NC(=O)[C@H](CCCCN)NC(=O)[C@H](CC(=O)O)NC(=O)[C@H](CC(C)C)NC(=O)C(C)(C)NC(=O)[C@@H](NC(=O)[C@H](CO)NC(=O)[C@H](Cc1ccc(O)cc1)NC(=O)[C@H](CC(=O)O)NC(=O)[C@H](CO)NC(=O)[C@@H](NC(=O)[C@H](Cc1ccccc1)NC(=O)[C@@H](NC(=O)CNC(=O)[C@H](CCC(=O)O)NC(=O)C(C)(C)NC(=O)[C@@H](N)Cc1ccc(O)cc1)[C@@H](C)O)[C@@H](C)O)[C@@H](C)CC)[C@@H](C)CC)C(C)C)C(=O)N[C@@H](C)C(=O)NCC(=O)NCC(=O)N1CCC[C@H]1C(=O)N[C@@H](CO)C(=O)N[C@@H](CO)C(=O)NCC(=O)N[C@@H](C)C(=O)N1CCC[C@H]1C(=O)N1CCC[C@H]1C(=O)N1CCC[C@H]1C(=O)N[C@@H](CO)C(N)=O  Cmax (human, moderate renal impairment; subcutaneous, 5 mg single dose, eGFR 30-59, geometric mean): 369 ng/mL
CC[C@@]1(O)C(=O)OCc2c1cc1n(c2=O)Cc2cc3c(CN(C)C)c(O)ccc3nc2-1  Cmax (human patients; oral, 8 mg weekly, day 15, geometric mean, with: pazopanib 800 mg daily): 43.6 ng/mL
Oc1ccc2cc3ccc4cccc5ccc(c2c1)c3c45  Cmax (UPLC-AMS; human; oral, 100 ng of [14C]-BaP): 8.13 ± 6.96 fg BaP equivalents/mL
CCCCCOc1ccc(-c2cc(-c3ccc(C(=O)N[C@H]4C[C@@H](O)[C@@H](O)NC(=O)[C@@H]5[C@@H](O)[C@@H](C)CN5C(=O)[C@H]([C@H](O)CC(N)=O)NC(=O)[C@H]([C@H](O)[C@@H](O)c5ccc(O)c(OS(=O)(=O)O)c5)NC(=O)[C@@H]5C[C@@H](O)CN5C(=O)[C@H]([C@@H](C)O)NC4=O)cc3)no2)cc1  Cmax (human paediatric patients 6 to sample C years; intravenous, 3 mg/kg once daily, day 7, median): 20800 ng/mL
COC(=O)N[C@H](C(=O)N1CCC[C@H]1C(=O)Nc1ccc([C@@H]2CC[C@@H](c3ccc(NC(=O)[C@@H]4CCCN4C(=O)[C@@H](NC(=O)OC)C(C)C)cc3)N2c2ccc(C(C)(C)C)cc2)cc1)C(C)C  Cmax (healthy human volunteers; oral, dose not given, with: digoxin plus 2D regimen): 147 ng/mL
NS(=O)(=O)Nc1ncnc(OCCOc2ncc(Br)cn2)c1-c1ccc(Br)cc1  Cmax (healthy adult humans, both sexes; oral, 10/40 mg fixed-dose combination, single dose, fed, high-fat breakfast): 176 ng/mL
CC[C@H](C)[C@H](NC(=O)[C@H](CC(C)C)NC(=O)[C@H](Cc1c[nH]c2ccccc12)NC(=O)[C@H](CCC(N)=O)NC(=O)[C@@H](NC(=O)[C@H](Cc1ccccc1)NC(=O)[C@H](C)NC(=O)[C@H](CCCCNC(=O)COCCOCCNC(=O)COCCOCCNC(=O)CC[C@H](NC(=O)CCCCCCCCCCCCCCCCCCC(=O)O)C(=O)O)NC(=O)[C@H](CCC(N)=O)NC(=O)[C@H](C)NC(=O)[C@@H](NC(=O)[C@H](CCCCN)NC(=O)[C@H](CC(=O)O)NC(=O)[C@H](CC(C)C)NC(=O)C(C)(C)NC(=O)[C@@H](NC(=O)[C@H](CO)NC(=O)[C@H](Cc1ccc(O)cc1)NC(=O)[C@H](CC(=O)O)NC(=O)[C@H](CO)NC(=O)[C@@H](NC(=O)[C@H](Cc1ccccc1)NC(=O)[C@@H](NC(=O)CNC(=O)[C@H](CCC(=O)O)NC(=O)C(C)(C)NC(=O)[C@@H](N)Cc1ccc(O)cc1)[C@@H](C)O)[C@@H](C)O)[C@@H](C)CC)[C@@H](C)CC)C(C)C)C(=O)N[C@@H](C)C(=O)NCC(=O)NCC(=O)N1CCC[C@H]1C(=O)N[C@@H](CO)C(=O)N[C@@H](CO)C(=O)NCC(=O)N[C@@H](C)C(=O)N1CCC[C@H]1C(=O)N1CCC[C@H]1C(=O)N1CCC[C@H]1C(=O)N[C@@H](CO)C(N)=O  Cmax (human, mild hepatic impairment (Child-Pugh A); subcutaneous, 5 mg single dose, geometric LS mean, weight-adjusted): 481 ng/mL
O=c1[nH]c(Cc2ccccn2)nc2c1cnn2C1CCOCC1  Cmax (healthy male human; oral, 100 mg, geometric mean): 3120 nM
Cc1ncc2n1-c1ccc(Cl)cc1C(c1ccccc1F)=NC2  Cmax (human; oral, 2 mg, geometric mean, with: fenebrutinib 200 mg twice daily): 14.8 ng/mL

A few entries again:
CC[C@@]1(O)C(=O)OCc2c1cc1n(c2=O)Cc2cc3c(CN(C)C)c(O)ccc3nc2-1  Cmax (human patients; oral, 8 mg weekly, day 15, geometric mean, with: pazopanib 800 mg daily): 43.6 ng/mL
Oc1ccc2cc3ccc4cccc5ccc(c2c1)c3c45  Cmax (UPLC-AMS; human; oral, 100 ng of [14C]-BaP): 8.13 ± 6.96 fg BaP equivalents/mL
CCCCCOc1ccc(-c2cc(-c3ccc(C(=O)N[C@H]4C[C@@H](O)[C@@H](O)NC(=O)[C@@H]5[C@@H](O)[C@@H](C)CN5C(=O)[C@H]([C@H](O)CC(N)=O)NC(=O)[C@H]([C@H](O)[C@@H](O)c5ccc(O)c(OS(=O)(=O)O)c5)NC(=O)[C@@H]5C[C@@H](O)CN5C(=O)[C@H]([C@@H](C)O)NC4=O)cc3)no2)cc1  Cmax (human paediatric patients 6 to sample C years; intravenous, 3 mg/kg once daily, day 7, median): 20800 ng/mL
